Assay results collected from several papers.
Each line is one published result; not all experiments were run side by side. “And” joins repeats or separate records; there may be more than shown. ± gives the spread as reported.
CDK2: Cyclin-dependent kinase 2 (CDK2, Homo sapiens, UniProt P24941)

Compound	tested on	test	test system	setting	scale	measurement	value
COc1cc2c(cc1NC(=O)c1ccc(C(C)(C)C)cc1)CCCCC2	Dengue virus 2	viral replication	HEK293	–	–	EC90	110 nM
CC(=O)N1CCC(C(=O)N2CCN3C(=O)c4cc(-c5ccccc5)ccc4NC(=O)C3C2)CC1 (stereo not drawn)	Caenorhabditis elegans	–	N2	50 µM	–	median lifespan	27 days
O=C1c2ccccc2C(=O)N1CCCc1nc(-c2cccc([N+](=O)[O-])c2)no1	CDK2	binding	–	–	–	Kd	> 100000 nM
C[C@@H](O)[C@H]1C(=O)N2C(C(=O)O)=C(SCCN=CN)C[C@H]12	Acinetobacter baumannii	–	0403, female ICR mice, peritonitis, heart	dose not given	–	bacterial load	3 log CFU and 2.22 log CFU and 3.48 log CFU and 2.52 log CFU
N=C(N)c1ccc(OCc2cc(COc3ccc(C(=N)N)cc3)cc(-c3ccccc3)c2)cc1	Escherichia coli	–	ATCC 25922	concentration not given, together with: rifampicin	–	MIC in combination	3.13 µg/mL
CCc1nn(C)c2nc(-c3ccc(C(=O)O)cc3)nc(NCc3ccc(F)cc3)c12	Cryptosporidium parvum	–	HCT-8	6 x EC90, 24 h	reference: DMSO control	parasite number	24.2% and 23.9% and 22.6% and 24.1%
CN[C@H](CC(C)C)C(=O)N[C@H]1C(=O)N[C@@H](CC(N)=O)C(=O)N[C@H]2C(=O)N[C@H]3C(=O)N[C@H](C(=O)N[C@H](C(=O)O)c4cc(O)cc(O)c4-c4cc3ccc4O)[C@H](O)c3ccc(c(Cl)c3)Oc3cc2cc(c3O[C@@H]2O[C@H](CO)[C@@H](O)[C@H](O)[C@H]2O[C@H]2C[C@](C)(N)[C@H](O)[C@H](C)O2)Oc2ccc(cc2Cl)[C@H]1O	Enterococcus faecium	agar dilution	compound-susceptible	64 isolates	–	MIC50	1 µg/mL
Nc1nc(-c2ccccc2)nc2[nH]nc(Nc3ccc(C(F)(F)F)cc3)c12	coxsackievirus B3	–	31-1-93, NMRI mice, CVB3 chronic myocarditis	oral, 100 mg/kg twice daily, day 6, dosed days 1 to 7, score scale 0 to 7	direction not given	clinical score	0.44
c1ccc(CSc2nc3ccc(-c4ccccc4)cc3cc2CNCCC2CCN(C3CCCC3)CC2)cc1	Acinetobacter baumannii	NADH-driven proton pumping, ACMA quenching	inverted membrane vesicles	2 µg/mL	–	inhibition	7%
COC(=O)[C@@H](CCSC)NCc1cc2ccccc2nc1SC	Pseudomonas aeruginosa	–	–	128 µg/mL, together with: pentamidine 100 µM	reference: control	growth	75.9%
COc1cc2cc(CNCCN3CCN(C)CC3)c(SCc3ccccc3)nc2c(OC)c1OC	Acinetobacter baumannii	NADH-driven proton pumping, ACMA quenching	inverted membrane vesicles	32 µg/mL	–	inhibition	74%
O=C(N1CCc2ccccc21)n1ccnn1	Arabidopsis thaliana	–	wild type, seedlings	100 µM, continuous red light, together with: 0.3 µM karrikin KAR2	–	hypocotyl length	1.01 mm
Cc1c2c(nn1C)CSCc1cc(n(C)n1)CSc1cc(c3ccccc3c1)OCCCc1c(C(=O)O)n(C)c3c-2c(Cl)ccc13	Staphylococcus aureus	broth microdilution	clinical isolates	–	–	MIC50	12.5 µM
Cc1nc2[nH]c(=O)n(O)c(=O)c2s1	Echinochloa crus-galli	glasshouse pot	–	750 g/ha, 21 days, pre-emergence	–	inhibition	0%
COC(=O)[C@H](Cc1ccc(O)cc1)NCc1cc2ccccc2nc1SC	Pseudomonas aeruginosa	–	–	128 µg/mL, together with: pentamidine 50 µM	reference: control	growth	80.4%
CN1CCN(CCNCc2cc3cc(Br)ccc3nc2SCc2ccccc2)CC1	Acinetobacter baumannii	NADH-driven proton pumping, ACMA quenching	inverted membrane vesicles	2 µg/mL	–	inhibition	41%
Cc1nc(NCCCNc2ccnc3cc(Cl)ccc23)nc(-c2cccc([N+](=O)[O-])c2)c1C(=O)OC(C)C	feline herpesvirus	viral replication	CRFK	–	–	EC50	> 4000 nM

Compound	tested on	test	test system	setting	scale	measurement	value
C=C[C@]1(C)C[C@@H](OC(=O)CSCCN(CC)CC)[C@]2(C)[C@H](C)CC[C@]3(CCC(=O)[C@H]32)[C@@H](C)[C@@H]1O	Mycoplasma gallisepticum	–	infected chickens, lung	oral, 40 mg/kg	reference: 0 h	reduction in lung mycoplasma load	2.71 log10 CFU/mL and 2.9 log10 CFU/mL and 2.82 log10 CFU/mL and 3.11 log10 CFU/mL and 3.02 log10 CFU/mL and 2.5 log10 CFU/mL and 2.96 log10 CFU/mL and 2.44 log10 CFU/mL
CNC(C)C1CCC(N)C(OC2C(N)CC(N)C(OC3OCC(C)(O)C(NC)C3O)C2O)O1 (stereo not drawn)	Salmonella enterica serovar Uganda	broth microdilution	clinical isolate RKI-No 206/14	–	–	MIC	> 8 µg/mL
CC(=O)NC[C@H]1CN(c2ccc(N3CCOCC3)c(F)c2)C(=O)O1	Staphylococcus	–	MRSE-37, mouse systemic infection	intravenous	survival	ED50	13.4 mg/kg
CC1=C[C@H](O/C=C2/C(=O)O[C@@H]3c4ccccc4C[C@H]23)OC1=O (racemic)	Arabidopsis thaliana	–	atd14-1 mutant	1 µM, racemate, compound alone	–	hypocotyl length	5.83 mm and 6.23 mm
O=c1[nH]c2ncsc2c(=O)n1O	Echinochloa crus-galli	glasshouse pot	–	1500 g/ha, 21 days, pre-emergence	–	inhibition	1.5%
Cc1ccc(CCC(=O)Nc2nnc(S(N)(=O)=O)s2)cc1	Enterococcus faecium	–	HM-952	–	–	MIC	0.184 µM
Nc1ccn([C@H]2CC[C@@H](CO)O2)c(=O)n1	Human immunodeficiency virus 1	viral replication, p24 ELISA	PHA-stimulated PBMC, NL4-3, CXCR4-tropic	7 days	–	IC50	12 ± 3 nM
C=C[C@]1(C)C[C@@H](OC(=O)CS[C@@H]2C[C@H]3CC[C@@H](C2)N3C)[C@]2(C)[C@H](C)CC[C@]3(CCC(=O)[C@H]32)[C@@H](C)[C@@H]1O	Streptococcus agalactiae	–	25 clinical isolates	–	–	MIC50	0.0312 µg/mL
C[C@@H]1[C@H](O)[C@@H](C)/C=C/C=C/C=C/C=C/C=C/C=C/C=C/[C@H](O[C@@H]2O[C@H](C)[C@@H](O)[C@H](N)[C@@H]2O)C[C@@H]2O[C@](O)(C[C@@H](O)C[C@@H](O)[C@H](O)CC[C@@H](O)C[C@@H](O)CC(=O)O[C@H]1C)C[C@H](O)[C@H]2C(=O)O	Aspergillus fumigatus	–	Af 293	4 × MIC, 12 h	–	viable cell reduction	65 to 70%
Nc1nc(O)c2ncn(COC(CO)CO)c2n1	herpes simplex virus 2	viral replication	HEL cells, G	–	–	EC50	240 nM
Cc1cnc(N2CC3(CCOCC3)C2)c(C(=O)Nc2ccc(C(=O)N3CCc4cc(C(=O)Nc5c(C)cccc5F)sc4-c4ccccc43)cc2)c1	human respiratory syncytial virus	viral replication, inhibitor	–	concentration not given, together with: 50% human serum	–	fold reduction of antiviral effect	11 fold
CC(C)n1ncc2c(C(=O)NCC3(C)CNC3)cc(C3CC3)nc21	Enterovirus D68	cytopathic effect	RD, US/IL/14-18952	5 nM	–	cell protection	-0.405% and -1.35% and -0.135%
COC[C@H]1O[C@@H]2O[C@H]3[C@H](OC)[C@@H](OC)[C@@H](O[C@H]4[C@H](OC)[C@@H](OC)[C@@H](O[C@H]5[C@H](OC)[C@@H](OC)[C@@H](O[C@H]6[C@H](OC)[C@@H](OC)[C@@H](O[C@H]7[C@H](OC)[C@@H](OC)[C@@H](O[C@H]8[C@H](OC)[C@@H](OC)[C@@H](O[C@H]1[C@H](OC)[C@H]2OC)O[C@@H]8COC)O[C@@H]7COC)O[C@@H]6COC)O[C@@H]5COC)O[C@@H]4COC)O[C@@H]3COC	Escherichia coli	LuxR reporter, antagonist	DH5α sensor strain	100 µM, together with: OHHL 200 nM	–	inhibition	1%
Nc1nc2c(ncn2COCCO)c(=O)[nH]1	herpes simplex virus 2	viral cytopathic effect	Vero, G	120 h	–	EC50	190 nM
O=C(Nc1ccc(S(=O)(=O)Nc2ncccn2)cc1)c1c(Cl)cccc1Cl	CDK2	binding	–	–	–	Kd	> 100000 nM
C[C@]12CC[C@@H]3c4ccc(O)cc4CC[C@H]3[C@@H]1CC[C@@H]2O	Arabidopsis thaliana	qRT-PCR, measured: RAB18	estradiol-inducible CLE5 line, seedlings	1 µM, β-estradiol induced, unit not given	reference: mock	mRNA level	2.95 and 3.04 and 3.31 and 2.67 and 2.89 and 3.2

A few entries again:
Compound	tested on	test	test system	setting	scale	measurement	value
O=C(N1CCc2ccccc21)n1ccnn1	Arabidopsis thaliana	–	wild type, seedlings	100 µM, continuous red light, together with: 0.3 µM karrikin KAR2	–	hypocotyl length	1.01 mm
O=c1[nH]c2ncsc2c(=O)n1O	Echinochloa crus-galli	glasshouse pot	–	1500 g/ha, 21 days, pre-emergence	–	inhibition	1.5%
COC(=O)[C@H](Cc1ccc(O)cc1)NCc1cc2ccccc2nc1SC	Pseudomonas aeruginosa	–	–	128 µg/mL, together with: pentamidine 50 µM	reference: control	growth	80.4%
COc1cc2c(cc1NC(=O)c1ccc(C(C)(C)C)cc1)CCCCC2	Dengue virus 2	viral replication	HEK293	–	–	EC90	110 nM
CNC(C)C1CCC(N)C(OC2C(N)CC(N)C(OC3OCC(C)(O)C(NC)C3O)C2O)O1 (stereo not drawn)	Salmonella enterica serovar Uganda	broth microdilution	clinical isolate RKI-No 206/14	–	–	MIC	> 8 µg/mL
